Measured values collected from several papers.
Numbered parts are unrelated; each lists some results of a single study. Positions count from the first letter of the parent shown.

Sample 1 — method: protein-binding microarray; molecule type: double-stranded DNA, one strand shown; sample: in vitro; tested at: 2200 nM top; notes: 60-bp whole probe; together with: salmon DNA 0.4 mg/ml; reference: random background probes; reading: higher = stronger binding; quantity: fitted relative affinity; all sequences stand within: GCCTAGCAC … GTCTTGATTCGCTTGACGCTGCTG
Target: Interferon regulatory factor 7, full length, phosphomimetic (IRF7, Homo sapiens, UniProt Q92985, residues 1-503, S471D/S472D/S475D/S476D/S477D/S483D/S484D/S487D)
Construct (chain): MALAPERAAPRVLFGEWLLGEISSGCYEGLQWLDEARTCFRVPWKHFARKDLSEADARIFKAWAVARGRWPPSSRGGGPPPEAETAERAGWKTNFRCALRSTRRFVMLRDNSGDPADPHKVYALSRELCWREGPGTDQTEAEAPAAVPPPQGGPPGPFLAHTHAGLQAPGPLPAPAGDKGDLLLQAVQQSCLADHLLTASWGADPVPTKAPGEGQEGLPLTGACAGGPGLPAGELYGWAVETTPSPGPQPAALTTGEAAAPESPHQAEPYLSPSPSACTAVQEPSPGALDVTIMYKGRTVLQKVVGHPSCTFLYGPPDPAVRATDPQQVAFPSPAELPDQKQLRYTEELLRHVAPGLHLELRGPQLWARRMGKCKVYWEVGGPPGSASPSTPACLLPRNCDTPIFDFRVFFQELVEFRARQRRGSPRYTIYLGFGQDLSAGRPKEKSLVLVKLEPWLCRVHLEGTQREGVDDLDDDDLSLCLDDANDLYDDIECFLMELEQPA
TTAGGGATCGACACTGGGTTAGTGCTA: -0.578 z-score
ATAGAACTGAGTCTCGATTAGTGCTAG: -0.138 z-score
TTAGGACTGGGGGTTCGGTTAGTGCTA: 0.346 z-score
TCATTTCTGGTTCCCATACTGTGCTAG: 3.7 z-score
AGGAATCTTGAGTTAGAGACGTGCTAG: -0.612 z-score
GACGATTTCAGTTTCGAGCCGTGCTAG: 4.55 z-score
TTAGAACTAGGGTTTCGATTAGTGCTA: 1.33 z-score
GTAGAACTGAGACTGGATTAGTGCTAG: -0.387 z-score
TCACCTGTACATCTATGACTGTGCTAG: 1.23 z-score
TCACCTCCCTGTTTCCAACTGTGCTAG: 2.87 z-score
TCACTTATCCCTAATCTCACTGTGCTA: 1.85 z-score
TTAGGACTGGGTATAGGTTAGTGCTAG: -0.44 z-score
TTAGGTATGGGTTTCGGTTAGTGCTAG: 4.09 z-score
CTAGGTTTCGGTTCCGGTTAGTGCTAG: 11.8 z-score
TTAGAACTGAGTCTAGATTAGTGCTAG: -0.756 z-score
TGAGGTCTCGGTCTCGGTTAGTGCTAG: 0.29 z-score

Sample 2 — method: RNA Bind-n-Seq; molecule type: RNA; sample: in vitro; tested at: 365 nM; reference: no-protein control; reading: higher = stronger binding; quantity: RBNS enrichment (R)
Target: RNA binding protein fox-1 homolog 2, RRM domain, GST-SBP tag (RBFOX2, Homo sapiens, UniProt O43251-10, residues 100-194)
Notes: natural RNA segment, single round, ends assumed
Target sequence (chain): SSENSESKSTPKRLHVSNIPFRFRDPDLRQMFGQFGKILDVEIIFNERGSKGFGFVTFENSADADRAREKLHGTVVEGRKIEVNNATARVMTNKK
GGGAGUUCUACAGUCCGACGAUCGAGAGCCAACCUAUAGUUUAACAGCUUAGGUAAGACUCACUCUGCCCAUGCUGGCCAGGGGAACCCUCAGGGGACUCCUCUGGGUGAAGGGCAGAUGCUAGCACUGCCUGUGGAAUUCUCGGGUGCCAA: 0.221
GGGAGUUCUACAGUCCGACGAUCCUUAAGUGGCAUUAAACAUUUGAGAGCUAACUAUAUUUUUAUAAGACUACUAUACAAACUACAGAGUUUAUGAUUUAAGGUACUUAAAGCUUCUAUGGUUGACAUUGUAUUGGAAUUCUCGGGUGCCAA: 0.597
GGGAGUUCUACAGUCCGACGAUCGGACUCCUCUCAAGUUGAAGUCAUCGUCUUCAUCUUCCUCCGUAUCUUCUUCCCUCAACUUCUUCACCCCUGAAGGACGACUGUCUGCAGAUGUUGCAGGACCUUGUUUUUGGAAUUCUCGGGUGCCAA: 0.652
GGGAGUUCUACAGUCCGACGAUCGGACAGUGUGGGCGCUCUCCCUACCUUGCCUCCUUUUUUCUUAAAGCAAAGUCACUUCUCCAUCACAACCAGAUUUGAGGCUGGUUUUGAUGGCUGGGUCCUUGGGCCUGUGGAAUUCUCGGGUGCCAA: 0.218
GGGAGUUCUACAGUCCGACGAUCACUGGCAGCACUACAGCGAGAACAUGUUCUCCUUUGAGGUGGAGAAGGAGCUGUUUGCCCUGAAACCCAUGAACUGCCCAGGACACUGGCUUAUGUUUGAUCAUCGGCCAUGGAAUUCUCGGGUGCCAA: 0.604
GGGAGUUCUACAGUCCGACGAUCCACCCACCACCUUGCCCGGCUAAUUUUUUUGUAUUUUUAGUAGAGACAGGGUUUCACCAUAUUAGCCAGGAUGGUCUCGAUCUCCUGACCUCGUGAUCCGCCCACCUCGGUGGAAUUCUCGGGUGCCAA: 0.256
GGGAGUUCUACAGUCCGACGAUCAUGGCUCUUGGCAGUUUAAAUUUAGUAAUUUUAAUUUAGUGAACAGAAUUGAGAAGAACGUGCCAAAUGAGAAUCAAUUAGGUGGAUUUUUGGCUGUCAUUUCAAAAGUGUGGAAUUCUCGGGUGCCAA: 0.432
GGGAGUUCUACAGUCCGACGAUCAACCUCUUCACAACAGUAUCAACACUGGCUUCUCCCGGUUCAUUUUAUGCGUGCGAGAAGUCAGUGGUAACUGCUGCAGGGCUUAAUACAUUAGUGGUAACUGGUUUAAAUGGAAUUCUCGGGUGCCAA: 0.278
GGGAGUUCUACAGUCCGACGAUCCCUGUCUGAGUAAGCCAGGGUGGCAGACGCUGGUCCCAAACCUCACCCAGCAACCAGCCUCUCAUUUUCAGGGCAGGCAGCAGAGACCCGGGUCUCUUGCCUUGAGAUGGUGGAAUUCUCGGGUGCCAA: 0.311
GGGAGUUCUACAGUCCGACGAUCGCCACCGAGUGUCUUCUCAUUUUAUUUCAGCUCCAUUUUGCCCAUAGAUGGGCAGAGGGGUGAGAUUGGCUCAUCCCCCUUCCAGAUUCUGCAAUAAAGCGGUGUGAGGAUGGAAUUCUCGGGUGCCAA: 0.264
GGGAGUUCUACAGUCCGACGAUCCACCUGUGAGACCAAAUUGAGCUAGGGGGGUCAGCCAGCCCUCUUCUGACACUAAAACACCUCAGCUGCCUCCCCAGCUCUAUCCCAACCUCUCCCAACUAUAAAACUAGUGGAAUUCUCGGGUGCCAA: 0.805
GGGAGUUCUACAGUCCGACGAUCGCCCACCUAGCUGGGUUUGGACCUGGAGUGCAGUGGCGUGAACCCUGGUCAGCACAGUCCCCAGCGGAGGCUCAUGGUGUCUCAUUAAACCAUCACAUACCAGUAACUCGUGGAAUUCUCGGGUGCCAA: 0.486

Sample 3 — target: CCND1, cyclin fold, Cln2 fusion (human); method: yeast growth competition, sequencing; sample: yeast; notes: weak parent motif; reference: not given; reading: higher = stronger binding; quantity: normalised enrichment score
Parent: BRCA2 docking peptide (human); PSIKRNLLNEFDR
PSIKRNLLNEFDP [R13P]: 0.887
PSIKRKLLNEFDR [N6K]: 0.172
PSIQRNLLNEFDR [K4Q]: 0.0718
PSIHRNLLNEFDR [K4H]: 0.33
PSIKENLLNEFDR [R5E]: 0.173
PSIKRNLLNAFDR [E10A]: 0.273
PSIKRNCLNEFDR [L7C]: 0.0679
PSIKINLLNEFDR [R5I]: 0.484
PSIKRTLLNEFDR [N6T]: -0.123
PSIKRNLLNEFYR [D12Y]: 0.788
PSIKRNLLNLFDR [E10L]: 0.956
PSILRNLLNEFDR [K4L]: 0.489
PSNKRNLLNEFDR [I3N]: 0.0168
PSIKSNLLNEFDR [R5S]: -0.205
PSYKRNLLNEFDR [I3Y]: 0.612
PSIKRNLLNEFWR [D12W]: 1.45
PSIKRILLNEFDR [N6I]: -0.255
PSIKRNLLNEFDE [R13E]: 1.37

Sample 4 — method: DHFR PCA, deep sequencing; sample: yeast; together with: (+)-ABA 1.4 µM; reference: wild-type fitted maximum; reading: higher = stronger binding; quantity: relative binding score
Target: ABI1, truncated, D143A, DHFR fusion (Arabidopsis thaliana)
Notes: methotrexate growth selection, single substitutions
Parent: PYL1, truncated, DHFR fusion (Arabidopsis thaliana); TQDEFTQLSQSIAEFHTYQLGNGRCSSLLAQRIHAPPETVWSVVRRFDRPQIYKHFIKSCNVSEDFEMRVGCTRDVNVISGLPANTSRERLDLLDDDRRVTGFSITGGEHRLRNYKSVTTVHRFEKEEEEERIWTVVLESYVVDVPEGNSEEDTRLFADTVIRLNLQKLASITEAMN
I12E: 1.39%
V121A: 12%
A30P: -13.4%
M176D: 42.7%
R98W: 8.86%
R99V: -11.4%
T154A: 8.92%
D96G: 7.42%
T173C: 73.7%
I162C: 17.8%
R69E: 48.7%

Sample 5 — target: JUN, bZIP domain (human); method: DHFR protein complementation; sample: yeast; reference: wild-type JUN-FOS pair; reading: higher = stronger binding; quantity: binding fitness
Notes: single substitutions, most at no-binding floor
Parent: JUN, bZIP domain (human); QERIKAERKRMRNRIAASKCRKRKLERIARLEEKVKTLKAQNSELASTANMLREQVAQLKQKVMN; partner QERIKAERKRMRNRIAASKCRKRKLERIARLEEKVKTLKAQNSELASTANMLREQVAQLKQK
T48D: -0.44 natural log
A57M: -0.357 natural log
T37K: -0.176 natural log
K34T: -0.0203 natural log
K36R: -0.109 natural log
S47A: -0.0577 natural log
E44Q: -0.3 natural log
T48N: -0.568 natural log
I28P: -1.19 natural log
Q41V: -0.444 natural log
L59C: -1.08 natural log
M51I: -0.242 natural log
V35I: -0.0202 natural log
E32T: -0.497 natural log
Q55W: -1.05 natural log
E54I: -0.417 natural log
Q41G: -1.11 natural log
S43M: -0.184 natural log

Repeated from above (sample 3):
PSNKRNLLNEFDR [I3N]: 0.0168
PSIKSNLLNEFDR [R5S]: -0.205
PSYKRNLLNEFDR [I3Y]: 0.612
PSIKRNLLNEFWR [D12W]: 1.45
PSIKRILLNEFDR [N6I]: -0.255
